Measurements from different studies.
Each line is one published result; not all experiments were run side by side. “And” joins repeats or separate records; there may be more than shown.
Target: Phosphorylase b kinase gamma catalytic chain, liver/testis isoform (PHKG2, Homo sapiens, UniProt P15735)
Residues used in one study (P15735 1-406): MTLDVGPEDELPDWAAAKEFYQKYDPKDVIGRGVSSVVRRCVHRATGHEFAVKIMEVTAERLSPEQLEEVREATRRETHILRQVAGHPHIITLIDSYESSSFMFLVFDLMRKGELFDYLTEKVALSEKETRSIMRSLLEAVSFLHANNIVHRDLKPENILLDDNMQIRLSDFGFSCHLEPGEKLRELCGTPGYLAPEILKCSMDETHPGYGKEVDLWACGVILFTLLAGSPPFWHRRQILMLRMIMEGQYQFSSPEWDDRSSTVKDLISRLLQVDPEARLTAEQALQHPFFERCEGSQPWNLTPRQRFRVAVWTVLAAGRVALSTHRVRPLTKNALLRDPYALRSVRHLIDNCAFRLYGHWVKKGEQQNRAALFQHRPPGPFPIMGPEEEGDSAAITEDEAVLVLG

Cc1cccc(O[C@H]2CCC[C@@H](C(C)CNCc3ccncc3)C2)c1 (relative stereo)  inhibition (enzyme activity, inhibitor; 1 µM): -1%
Nc1ncc(-c2cc(-c3cnn(CC(F)(F)F)c3)ncc2F)nc1C(=O)NC1CNCC(F)C1 (centres unmarked)  remaining activity (enzyme activity; 1 µM; reference: DMSO control): 99%
COc1c(OCCCN2CCOCC2)ccc2c1N=C(NC(=O)c1cnc(N)nc1)N1CCN=C21  remaining activity (kinase activity, inhibitor; 1 µM; reference: untreated control): 82%
Cc1ccc(-c2c(/C=C(\C#N)C(=O)NC(C)C)n(CCCO)c3ncnc(N)c23)cc1  remaining binding (cell-free assay, competition with immobilised ligand; 1 µM): 100%
CNC1C[S+]2CC[S+]3CC[S+](C1)[Ru-4]321([N]=C=S)[n]2c3ccc(OC)cc3c3c4c(c5cc(F)c[n+]1c5c32)C(=O)NC4=O (centres unmarked)  remaining binding (KinomeScan; 0.1 µM; reference: untreated): 56%
O=C(Cc1ccc(OCc2ccccc2)cc1)NC1(C(=O)O)CCN(C(=O)c2ccc(-c3cccc(Cl)c3)cc2)CC1  activity vs control (enzyme activity, inhibitor; 10 µM): 110%
Nc1ncc2c(n1)-c1c([nH]c3ccc(C4=CCOCC4)cc13)CCC2  remaining binding (binding, competition with immobilised ligand; 1 µM): 100%
NC(=O)[C@@H](O)C[C@H]1CCc2sc3ncnc(O[C@H]4CC[C@H](N5CCOCC5)CC4)c3c21  inhibition (enzyme activity, inhibitor; 10 µM): 8%
COCC12C(=O)NC3C4(C(OC)CC1O)C1CC5(O)C(OC)C(O)C(OC(C)=O)(C1C5OC(=O)c1ccccc1)C3(O)C(OC)C24 (centres unmarked)  remaining activity (kinase activity, inhibitor, ProQinase kinase profiling; 25 µM; reference: control): 101% and 99%
C=CC(=O)N1CCCC(n2c(=O)c3ncccc3n(Cc3ccc(Oc4ccccc4)cc3)c2=O)C1 (centres unmarked)  remaining binding (cell-free assay, competition with immobilised ligand; 1 µM): 91%
COc1cc(Nc2nc(C)cc(-c3cnn4nc(OC)ccc34)n2)cc(C(F)(F)F)c1  remaining activity (inhibitor; 1 µM; reference: control): 100%
CN1CCN(Cc2ccc(-c3ccc(CO[C@H]4CCC[C@@H]4NC(=O)c4cc(-c5cnn(C)c5)cnc4N)cc3)cc2)CC1  inhibition (enzyme activity, inhibitor; 0.1 µM): 9%
Cc1cnc2nc1Nc1cccc(c1)COC/C=C/COCc1cc(ccc1OCCN1CCOCC1)N2  remaining binding (binding; 0.1 µM): 98%
C=CC(=O)Nc1cccc(-c2cnc3[nH]cc(C(=O)NC(C)(C)C)c3n2)c1  inhibition (kinase activity; 0.1 µM): 7%

For quick reference, copied from above:
COc1cc(Nc2nc(C)cc(-c3cnn4nc(OC)ccc34)n2)cc(C(F)(F)F)c1  remaining activity (inhibitor; 1 µM; reference: control): 100%
CN1CCN(Cc2ccc(-c3ccc(CO[C@H]4CCC[C@@H]4NC(=O)c4cc(-c5cnn(C)c5)cnc4N)cc3)cc2)CC1  inhibition (enzyme activity, inhibitor; 0.1 µM): 9%
